Results gathered from unrelated publications.
Lines come from different studies, so protocols differ.

| SMILES | test | test system | setting | endpoint | value |
| --- | --- | --- | --- | --- | --- |
| O=C(c1ccc(F)c(F)c1Nc1ccc(I)cc1F)N1CC(O)([C@@H]2CCCCN2)C1 |  | patients aged 6 to sample A years | oral, dose not given | adverse events of special interest | 39% |
| CN1CC[C@@H](c2c(O)cc(O)c3c(=O)cc(-c4ccc(C(F)(F)F)cc4Cl)oc23)[C@@H]1CO | measured: Hyperglycemia | relapsed B-cell malignancies | oral, 150 mg, grade 3-4, intermittent dosing | patients with adverse event | 0% |
| O=S(=O)(Nc1ccccc1)c1ccc(NC(=S)Nc2ccccc2)cc1 | measured: BA% | male mouse, blood | oral, 5 mg/kg daily, 14 days | blood cell fraction | 0.22% |
| CC(C)C[C@@H](NC(=O)CNC(=O)[C@@H](CCCCN)NC(=O)[C@@H](CC(C)C)NC(=O)[C@@H](CCCCN)NC(=O)[C@@H](CCCNC(=N)N)NC(=O)[C@@H](CC(C)C)NC(=O)[C@@H](CC(C)C)NC(=O)[C@@H](CCCNC(=N)N)NC(=O)[C@H](N)CCCNC(=N)N)C(=O)N[C@H](CCCCN)C(=O)N[C@H](CCCCN)C(=O)N[C@H](Cc1ccc(O)cc1)C(=O)N[C@H](CC(C)C)C(=O)N[C@H](Cc1ccc(O)cc1)C(=O)N[C@H](Cc1ccccc1)C(=O)N[C@H](CCCCN)C(=O)N[C@H](CC(C)C)C(=O)N[C@H](CCC(N)=O)C(=O)N[C@H](CC(C)C)C(=O)N[C@H](CC(C)C)C(=O)N[C@H](CCCCN)C(=O)N[C@H](CCCCN)C(N)=O | analytical RP-HPLC C18 |  |  | HPLC retention time | 14.7 min |
| Cc1ccc(F)c2cc(C(=O)N[C@@H]3CCC[C@H](N4CC[C@H](N(C)S(C)(=O)=O)C4)C3)[nH]c12 |  | CD1 mouse | oral, 100 mg/kg | oral bioavailability | 63.4% |
| CO[C@H]1C[C@@H]2CC[C@@H](C)[C@@](O)(O2)C(=O)C(=O)N2CCCC[C@H]2C(=O)O[C@H]([C@H](C)C[C@@H]2CC[C@@H](OC(=O)NCCOCCOCCOCCOCCOCCOCCOCCOCCC(=O)N3CCc4cc(Cn5nc(-c6ccc7oc(N)nc7c6)c6c(N)ncnc65)ccc4C3)[C@H](OC)C2)C[C@@H](O)[C@H](C)/C=C(\C)[C@@H](O)[C@@H](OC)C(=O)[C@H](C)C[C@H](C)/C=C/C=C/C=C/1C | phase 1 dose escalation, measured: rash | advanced solid tumour patients | intravenous, 12 mg weekly, any grade | TRAE incidence | 8.3% |
| COc1cc2c(Oc3ccc4[nH]c(C)cc4c3F)ccnc2cc1OCC1(N)CC1 |  | paediatric recurrent refractory sarcoma | 10 mg | grade 1 or 2 gingival bleeding | 25% |
| COc1ncnn2ccc(-c3cnc4nc(C)n(Cc5nnc([C@@H](C)F)o5)c4c3)c12 |  | human | oral, dose not given, grade 4 | patients with dehydration | 0% |
